Experimental data gathered from unrelated publications.
Parts stem from different laboratories: compare values within a part only.

Study 1 — technique: EMSA with sequencing; form: double-stranded DNA, one strand shown; medium: in vitro; tested at: 10 and 20 nM; relative to: negative control set to 0; direction: higher = stronger binding; endpoint: normalised bound fraction
Target: Hepatocyte nuclear factor 3-alpha (Foxa1, Mus musculus, UniProt P35582, residues 1-468, full length assumed)
Notes: whole designed probe, mean of two concentrations, ends assumed
Shared flanks, not repeated: GTGAGCGGTGCCCATTGATGGGGAAC … TTTCACTGGGATCGTGGGGAC
Residues (chain): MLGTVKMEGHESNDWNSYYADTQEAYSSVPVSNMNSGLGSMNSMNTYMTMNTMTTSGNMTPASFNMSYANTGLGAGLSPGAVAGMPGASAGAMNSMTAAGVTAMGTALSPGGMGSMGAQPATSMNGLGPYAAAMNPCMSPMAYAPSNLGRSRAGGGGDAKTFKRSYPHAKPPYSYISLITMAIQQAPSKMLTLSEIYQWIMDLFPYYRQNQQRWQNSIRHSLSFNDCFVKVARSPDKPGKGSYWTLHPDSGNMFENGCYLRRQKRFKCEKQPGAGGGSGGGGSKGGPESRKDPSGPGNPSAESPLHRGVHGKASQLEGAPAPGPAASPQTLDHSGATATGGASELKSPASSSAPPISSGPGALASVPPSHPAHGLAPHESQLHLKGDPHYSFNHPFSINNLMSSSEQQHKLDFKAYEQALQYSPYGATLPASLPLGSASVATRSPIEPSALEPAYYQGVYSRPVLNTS
Oligonucleotide = AGGGAGTAGTGTTGACCCACCCCCACTCAACACTCAGTCCAGCCAGGCCAGCCCAGGAGGAAGTCATGTAGCCACGAATCTGCCCTGAATCACTGTTGACTTTTCCTTAGCTTTGTTTACAAAATTCATGACCACAGATAAATGGTACAACTCCTGGAATCAGGTTTTGTAGGGCTTGAAATGCATACAATTT; value = 0.415 ratio
Oligonucleotide = AAGGAGAGGATGGAGGGAGGAAGATCAAACAAAGGTTCATAAGAAAAGGCTTGTTAGAACTAAACCTGAAATGATATGTAGAAGCTTGCTAAGTAAACAAGAAATAAAGGTAAATATGGTGTATAGGGAAGAGAATCTTTGTGAAATGGCCTGTGTTCCAGAATTACTTGAGTATAGGAGTAGAACAAAGGGA; value = 0.558 ratio
Oligonucleotide = TACACACGTATAAAAATGCTGCATGGGTGAGTGTGACATAGGCAAGCTCTTTAACAGGTGAAGCATCAGAGACTCCTGCTAACCTGGGAGAAAGCAATCTGCCACAGGGAGAGAACAGGGCCACGTGGAAGGGACCTGAGGACGACCTCTAGGAGTTGAGTGGGGTTTCCTGCTGACAGCTAGCAGGAAAATA; value = -0.0374 ratio
Oligonucleotide = CAGTGCAGGTGACTAAGGATGACTAAGGACAGAGCAGGTGACTAAGGATGACTAAGGACTCTAAATATGTGAGTATAAAGGCTAGAAGGGGGTAGATTACTGAAACTAGGGCAAGGAGGTGTAAAGAATGAGGAAGTTAAACTTTAAAATGGAGAACAAAGTATAAGAAAGCTGAACATACTGACATACTGGT; value = -0.0432 ratio
Oligonucleotide = ATCTTCCCCCTCTTCCTTGCCCCACCAGCTCACCTACGGGGGTTATTTGCACAAAGGAAAATAAATAAAGCCGGCATTCGTTAACCCTCTTCTGGCGCAAACTGCTGTTTGCTCTGCATGAATCATGGTCCTTACGCGACGCCAGGCTCCGGGAGAGCAAAGCACCGTGTCAGGCGCATGATCCGGGCTCGCC; value = 0.38 ratio
Oligonucleotide = TTCCGTCTGTGGTCTATAGCGTTGCCTCTTGCCTTTTTACAAGGAAGAAAAACTTGTATAAACATCATGATTCATGGGTTTTAATCACTTTAGGTAATCTGTGCTGCCAGATGATCCTGGTTTGCAGATTCAGGACATGAAATCCTTCAACTGACACTGAGATTTGTTTAGAGTTGATGGTGGGAGAAGAGAG; value = 0.0731 ratio
Oligonucleotide = ATCTTCCCCCTCTTCCTTGCCCCACCAGCTCACCTTCCCGGGTTATTTGCAGATAGGAAAATAAATAAAGCCGGCATTCGTTAACGATGAATCATGGCATACTGCTGTTTGCTCTGGATCTAACATGGTCCTTTGGCGACGCCAGGCTCCGGGAGAGCAAAGCACCGTGTCAGGGCCATGATCCGGGGTGGCC; value = 0.361 ratio
Oligonucleotide = CTACATAAAATATCACTTATCAAAGTCTGTTTATGACCTCTTTTAAATCCAGAAATCATACTGCTGTCAATTCATTTTTAGCAGCAATCCTAAGTCATCTTGAGTCTATGTATCTTGAGTAATCCTTGGCAGGGTGCAGAGCAGTAAATCATATTTTATTACTCAAGATGGCAGAAGCTAGAGCTATCTGAAA; value = -0.00367 ratio

Study 2 — technique: protein-binding microarray; form: double-stranded DNA, one strand shown; medium: in vitro; tested at: 2200 nM top; notes: 60-bp whole probe; together with: salmon DNA 0.4 mg/ml; relative to: random background probes; direction: higher = stronger binding; endpoint: fitted relative affinity; shared flanks, not repeated: GCCTAGCAC … GTCTTGATTCGCTTGACGCTGCTG
Target: Interferon regulatory factor 7, full length, phosphomimetic (IRF7, Homo sapiens, UniProt Q92985, residues 1-503, S471D/S472D/S475D/S476D/S477D/S483D/S484D/S487D)
UniProt Q92985, sequence (whole entry, unmodified, looked up): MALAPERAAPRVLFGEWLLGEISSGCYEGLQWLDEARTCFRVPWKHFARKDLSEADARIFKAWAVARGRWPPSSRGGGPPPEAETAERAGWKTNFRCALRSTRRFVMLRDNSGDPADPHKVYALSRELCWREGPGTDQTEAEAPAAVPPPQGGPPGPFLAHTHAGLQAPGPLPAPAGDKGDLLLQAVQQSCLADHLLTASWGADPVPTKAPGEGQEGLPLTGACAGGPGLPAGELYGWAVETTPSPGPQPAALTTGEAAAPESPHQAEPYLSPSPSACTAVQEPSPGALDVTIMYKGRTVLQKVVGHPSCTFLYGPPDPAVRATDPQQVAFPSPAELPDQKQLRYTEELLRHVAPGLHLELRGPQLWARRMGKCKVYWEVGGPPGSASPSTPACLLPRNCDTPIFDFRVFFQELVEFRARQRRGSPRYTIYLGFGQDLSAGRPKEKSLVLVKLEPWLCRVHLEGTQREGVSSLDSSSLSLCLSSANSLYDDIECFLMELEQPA
Oligonucleotide = TTAGGTCGCCTTTTCCTTTAGTGCTAG; value = 1.24 z-score
Oligonucleotide = ATGGCTCTCTGGACTGTGTGTGTGCTA; value = 0.11 z-score
Oligonucleotide = TCAATTTTTTTTTTCATACTGTGCTAG; value = 1.44 z-score
Oligonucleotide = ACATCCAAATCCACCATTCAGTGCTAG; value = 1.49 z-score
Oligonucleotide = TTAGGTATCCTTGTCCTTTAGTGCTAG; value = 0.982 z-score
Oligonucleotide = GGGTCTTGCAGTATGGAAAGGTGCTAG; value = -0.198 z-score
Oligonucleotide = GACGGACTGCTTATCCTGATGTGCTAG; value = 0.405 z-score
Oligonucleotide = GACGGTTCCGACTTTCGGGACGTGCTA; value = 3.03 z-score
Oligonucleotide = TCATTTTCATTTTCTGAAACTGTGCTA; value = 6.9 z-score
Oligonucleotide = TTAGGTATCGGGTATCGCTTAGTGCTA; value = 0.659 z-score
Oligonucleotide = GACGGTATCGACTTTCGGTACGTGCTA; value = 3.92 z-score

Study 3 — technique: RNAcompete; form: RNA; medium: in vitro; tested at: 20 nM; notes: 7-mer, probes averaged, single round; relative to: mean of 7-mers; direction: higher = stronger binding; endpoint: 7-mer Z-score
Target: PABPC1L2, full length, GST fusion (mouse, UniProt A0ABA7IW68)
Target sequence (chain): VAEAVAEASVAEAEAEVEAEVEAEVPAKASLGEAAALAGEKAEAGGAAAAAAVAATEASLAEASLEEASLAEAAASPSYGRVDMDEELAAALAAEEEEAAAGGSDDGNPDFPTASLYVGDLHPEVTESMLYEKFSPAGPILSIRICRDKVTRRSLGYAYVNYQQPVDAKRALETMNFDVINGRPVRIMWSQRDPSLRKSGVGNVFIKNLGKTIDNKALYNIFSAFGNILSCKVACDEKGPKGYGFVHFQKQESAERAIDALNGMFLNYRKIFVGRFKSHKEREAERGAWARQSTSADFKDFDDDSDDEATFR
Oligonucleotide = UCGGGUG; value = -0.144
Oligonucleotide = ACACAAG; value = 0.191
Oligonucleotide = CAGUGAU; value = -0.26
Oligonucleotide = CUGCAUG; value = -0.139
Oligonucleotide = GUUAUAA; value = 0.0642
Oligonucleotide = UGCUGGG; value = 0.00617
Oligonucleotide = GUCGAAA; value = 0.227
Oligonucleotide = UUGCCGG; value = -0.206
Oligonucleotide = AGGUUUU; value = -0.36
Oligonucleotide = CCCUAUU; value = -0.275

Other studies, line by line
Molecule = PhoQ, residues 284 288 289 292 302 303 STVVAA; target = PhoP, residues 12 14 15 18 19 LHHSG (Escherichia coli, UniProt P23836); test = Sort-seq, refers to: YFP reporter; system = E. coli; setting = PhoQ-PhoP variant library, together with: 10 µM Mg2+; scale = relative to: high Mg2+ state, higher = stronger signaling; endpoint = fold induction; value = 23.9

Repeated from above (study 3):
Oligonucleotide = GUCGAAA; value = 0.227
Oligonucleotide = UUGCCGG; value = -0.206
Oligonucleotide = AGGUUUU; value = -0.36
Oligonucleotide = CCCUAUU; value = -0.275
